Assay results of several laboratories.
Each line is one published result; not all experiments were run side by side. Numbers after ± are the reported error.
BCHE: Cholinesterase (BCHE, Homo sapiens, UniProt P06276)
Sequence of UniProt P06276 (whole entry, looked up): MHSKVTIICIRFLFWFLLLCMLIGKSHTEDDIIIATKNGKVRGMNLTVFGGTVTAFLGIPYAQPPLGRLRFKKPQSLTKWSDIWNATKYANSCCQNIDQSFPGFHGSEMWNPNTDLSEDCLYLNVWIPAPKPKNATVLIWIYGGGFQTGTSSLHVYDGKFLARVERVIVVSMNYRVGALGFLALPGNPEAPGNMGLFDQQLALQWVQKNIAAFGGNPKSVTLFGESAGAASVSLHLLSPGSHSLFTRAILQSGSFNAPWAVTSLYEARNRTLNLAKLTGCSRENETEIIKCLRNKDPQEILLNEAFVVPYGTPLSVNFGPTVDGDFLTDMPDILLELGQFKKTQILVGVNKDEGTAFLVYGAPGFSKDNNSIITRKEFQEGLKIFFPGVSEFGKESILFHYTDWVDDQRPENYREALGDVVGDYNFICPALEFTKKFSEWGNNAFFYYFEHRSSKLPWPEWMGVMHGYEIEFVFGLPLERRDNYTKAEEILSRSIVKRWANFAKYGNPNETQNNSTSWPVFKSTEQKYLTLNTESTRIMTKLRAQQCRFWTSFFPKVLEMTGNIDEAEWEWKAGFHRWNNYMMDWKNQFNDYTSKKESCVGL
Sequence of UniProt Q13547 (whole entry, looked up): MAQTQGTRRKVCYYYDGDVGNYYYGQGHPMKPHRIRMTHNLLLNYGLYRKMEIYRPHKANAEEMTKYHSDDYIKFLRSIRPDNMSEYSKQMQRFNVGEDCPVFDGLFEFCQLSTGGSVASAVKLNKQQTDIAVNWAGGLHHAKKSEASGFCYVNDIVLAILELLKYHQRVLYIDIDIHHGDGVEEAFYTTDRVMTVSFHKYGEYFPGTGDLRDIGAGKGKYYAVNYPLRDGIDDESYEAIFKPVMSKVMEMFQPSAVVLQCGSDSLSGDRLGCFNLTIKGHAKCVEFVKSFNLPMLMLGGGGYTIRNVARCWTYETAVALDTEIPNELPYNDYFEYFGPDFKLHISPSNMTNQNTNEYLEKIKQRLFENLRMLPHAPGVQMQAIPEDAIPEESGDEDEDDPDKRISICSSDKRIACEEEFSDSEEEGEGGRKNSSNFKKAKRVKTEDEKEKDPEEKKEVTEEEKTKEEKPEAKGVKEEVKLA

`N[C@@H](Cc1ccc(O)c(O)c1)C(=O)O` — result for “fluctuation index ratio”: 0.55 (human, plasma; oral, dose not given, carbidopa/levodopa every 4 h, together with: opicapone; relative to: after over before opicapone).
For `CCCCCCCCCCCCCCCC(=O)N[C@@H](CCC(=O)NCCCC[C@H](NC(=O)[C@H](CC(=O)O)NC(=O)[C@H](CO)NC(=O)[C@@H](NC(=O)[C@H](Cc1ccccc1)NC(=O)[C@@H](NC(=O)CNC(=O)[C@H](CCC(N)=O)NC(=O)[C@H](CO)NC(=O)[C@@H](N)Cc1c[nH]cn1)[C@@H](C)O)[C@@H](C)O)C(=O)N[C@@H](CO)C(=O)N[C@@H](CCC(=O)O)C(=O)N[C@@H](Cc1ccc(O)cc1)C(=O)N[C@@H](CC(C)C)C(=O)N[C@@H](CC(=O)O)C(=O)N[C@@H](CO)C(=O)N[C@@H](CCC(=O)O)C(=O)N[C@@H](CCCNC(=N)N)C(=O)N[C@@H](C)C(=O)N[C@@H](CCCNC(=N)N)C(=O)N[C@@H](CC(=O)O)C(=O)N[C@@H](Cc1ccccc1)C(=O)N[C@H](C(=O)N[C@@H](C)C(=O)N[C@@H](Cc1c[nH]c2ccccc12)C(=O)N[C@@H](CC(C)C)C(=O)N[C@@H](CCC(=O)O)C(=O)N[C@@H](C)C(=O)NCC(=O)NCC(=O)O)C(C)C)C(=O)O`, “treatment-related adverse events” read 0% (item: Dyspepsia; humans CrCl 45 to 60 mL/min; subcutaneous, 100 µg single dose).
With `CC(C)CN1CCc2ccc(Br)cc21` the IC50 was 10 µM (Plasmodium falciparum; Dd2).
`c1ccc2cc3c(cc2c1)-c1cccc2cccc-3c12` has a log K(PDMS-water) of 5.26 ± 0.03 (fresh water; 12 (unit not given), 20 °C, S30-2 sampler, 30 µm).
`CC(C)C[C@@H]1NC(=O)CNC(=O)[C@H](CCCCN)NC(=O)[C@H](CCCNC(=N)N)NC(=O)[C@H]([C@@H](C)O)NC(=O)[C@@H]2CSSC[C@@H]3NC(=O)[C@H]([C@@H](C)O)NC(=O)CNC(=O)CNC(=O)[C@H](C(C)C)NC(=O)[C@@H]4CSSC[C@H](NC(=O)[C@H](CCCCN)NC(=O)[C@H](CSSC[C@H](NC(=O)[C@H](C(C)C)NC(=O)[C@@H]5CCCN5C1=O)C(=O)NCC(=O)N[C@@H](CCC(=O)O)C(=O)N[C@@H]([C@@H](C)O)C(=O)N4)NC(=O)CNC(=O)[C@@H]1CCCN1C(=O)[C@H]([C@@H](C)O)NC(=O)[C@H](CC(N)=O)NC3=O)C(=O)N[C@@H](CO)C(=O)N[C@@H](Cc1c[nH]c3ccccc13)C(=O)N1CCC[C@H]1C(=O)N[C@@H](C(C)C)C(=O)N2` has a remaining peptide of 100% (HPLC; water; 180 µM, 14 days, 37 °C, deamidation stability).
The mortality of `C=C(CN(C(=O)c1c(C(F)F)nn(C)c1F)C1CC1)c1ccc(Cl)cc1Cl` is reported as 0% (static acute toxicity test; zebrafish (Brachydanio rerio); 0.482 mg a.i./L, 72 h).
`Cc1ccc(OCCc2cccc(F)c2)c(C(N)=O)c1` gave a metabolized fraction of 88% (male CD-1 mouse liver microsomes; concentration not given, 5 min, pH 7.4).
For `C[C@H]1COCCN1c1nc(NCc2cccnc2C(F)(F)F)c2cccnc2n1`, the BP change was -18.2% (conscious rat; intravenous, 30 mg/kg; relative to: control).
`Clc1ccc(Cl)c(-c2c(Cl)c(Cl)cc(Cl)c2Cl)c1` — result for “literature range factor”: 1.1 (polyethylene-water partitioning; PCB compilation; relative to: maximum over minimum K).
`CC(=O)c1c(C)c2cnc(Nc3ccc(C4CCN(CCS(C)(=O)=O)CC4)cn3)nc2n(C2CCCC2)c1=O`: “patients with Anemia” 44.4% (HR+/HER2- advanced breast cancer patients; oral, dose not given, all grades,, total).
`c1ccc2c(c1)cc1ccc3cccc4ccc2c1c34` gave a log K(PDMS-water) of 5.21 ± 0.01 (fresh water; 12 (unit not given), 20 °C, S100 sampler, 100 µm).
`CCCN(CCC)CCc1c[nH]c2ccccc12` has an IC50 of 10.3 ± 5.04 µM (BCHE; inhibitor; with Triton).
`CC(C)C[C@@H]1NC(=O)[C@H](CC(C)C)NC(=O)[C@H](Cc2c[nH]c3ccccc23)NC(=O)[C@H](CO)NC(=O)[C@H](Cc2c[nH]c3ccccc23)NC(=O)[C@@H]2CCCN2C(=O)[C@H](CC(C)C)NC(=O)[C@H](Cc2c[nH]cn2)NC(=O)[C@@H]2CCCN2C(=O)[C@H](CC(N)=O)NC(=O)[C@H](C)NC(=O)[C@H](Cc2ccc(O)cc2)NC(=O)[C@H](CS)NC(=O)[C@H](CCCCNC(=O)CN2CCN(CC(=O)O)CCN(CC(=O)O)CCN(CC(=O)O)CC2)NC1=O` [lutetium-177 labelled] has a tissue uptake of 0.02 %ID (Balb/c mouse, female, 4T1 tumour, heart; intravenous, 3.7 MBq, 24 h).
`C[C@]12CC[C@H](n3ccnc3)CC1=CC[C@@H]1[C@@H]2CC[C@]2(C)C(n3cnc4ccccc43)=CC[C@@H]12.Cl.Cl` gave a t_half of roughly 180 min (CD-1 mouse, male, plasma; intravenous, 1 mg/kg).
For `COc1ccc(-c2c(-c3ccc(C#N)c(F)c3)nc(N3CCC(N)CC3)n(C)c2=O)cc1F`, “serious TEAE incidence” read 2% (item: duodenal obstruction; human patients; oral, dose not given, dose escalation).
The diarrhea of `C[C@@H](NC(=O)N1C(=O)[C@H](Cc2ccnc(N)c2)[C@H]1C(=O)O)C1CCCCC1` is reported as 2.5% (healthy Chinese adult volunteers; continuous intravenous infusion, dose not given, 5.0 days, CTCAE 5.0, all doses).
`N.N.[Cl][Pt][Cl]` gave a body weight of 24.2 g (mouse xenograft model; dose not given, day 4, group mean).
`CC/C(=C(\c1ccccc1)c1ccc(OCCN(C)C)cc1)c1ccccc1` gave a Tmax of 6 h (CD-1 mouse, male, lung; intraperitoneal, 30 mg/kg).
Under “grade 3 ALT elevation”, `COc1cc2c(Oc3ccc4[nH]c(C)cc4c3F)ccnc2cc1OCC1(N)CC1` is recorded as 0% (paediatric recurrent refractory sarcoma; 10 mg).
`CC1(C)C(C=C(Cl)Cl)C1C(=O)OC(C#N)c1ccc(F)c(Oc2ccccc2)c1` (stereo not shown) — result for “enzyme contribution to clearance”: 0.42% (item: CYP2C19; human, age 6 months, recombinant human CYP2C19; 0.1 µM).
With `N.N.O=C([O-])C1(C(=O)[O-])CCC1.[Pt+2]` the AUC(0-48 h) was 5.71 mg·min/mL (ICP-MS platinum, item: platinum; human patients, plasma; dose not given, carboplatin target AUC 3, cycle 1 day 1).
`NC(=NCc1ccccc1)NC(=O)c1nc(Cl)c(N)nc1N` gave an IC50 of 2 µM (Plasmodium falciparum; 7G8).
`C[C@]1(CO)Cc2ncn(-c3ccc(C#N)c(Cl)c3)c2C(=O)O1`: “subjects with drug-related TEAEs” 14.3% (investigator-assessed; human; 80 mg single dose).
For `CCN(CCO)CCCC(C)Nc1ccnc2cc(Cl)ccc12` (stereo not shown), the nausea patients was 14% (newly diagnosed glioblastoma patients; oral, 400 mg/dose, grade 3, together with: radiotherapy and temozolomide).
`CO[C@H]1C[C@@H]2CC[C@@H](C)[C@@](O)(O2)C(=O)C(=O)N2CCCC[C@H]2C(=O)O[C@H]([C@H](C)C[C@@H]2CC[C@@H](OC(=O)NCCOCCOCCOCCOCCOCCOCCOCCOCCC(=O)N3CCc4cc(Cn5nc(-c6ccc7oc(N)nc7c6)c6c(N)ncnc65)ccc4C3)[C@H](OC)C2)C[C@@H](O)[C@H](C)/C=C(\C)[C@@H](O)[C@@H](OC)C(=O)[C@H](C)C[C@H](C)/C=C/C=C/C=C/1C` — result for “incidence of Constipation TEAE”: 0% (patients with advanced solid tumours; intravenous, 1.6 mg/3 mg weekly, grade ≥3).
`O[C@H]1CCCN[C@@H]1CCCn1cnc2c(Cl)c(Cl)ccc21` gave a CL/F of 2490 mL/min (healthy human, plasma; oral, 150 mg, steady state, together with: nintedanib 150 mg).
For `CN1CC[C@@H](c2c(O)cc(O)c3c(=O)cc(-c4ccc(C(F)(F)F)cc4Cl)oc23)[C@@H]1CO`, “patients with adverse event” read 0% (item: Hypoalbuminemia; relapsed AML; oral, 150 mg, grade 3-4, intermittent dosing).
With `C[C@H]1CN(c2n[nH]c3nc(N[C@H]4CC[C@H](NS(=O)(=O)CCC(F)(F)F)CC4)ncc23)CCO1` the IC50 was no less than 20 µM (Histone deacetylase 1 (HDAC1, Homo sapiens, UniProt Q13547); biochemical).
`O=C(O)CCCOc1ccc(F)cc1-c1cc(-c2ccccc2C(F)(F)F)n(-c2ccccc2)n1` gave a leukocyte differential of 17.1 ± 4.9% (item: Neutrophils; Crl:CD(SD) rats, female, blood; iv, 25 µg/kg, 14 days).
For `O[C@@](Cc1ncc(CC2(C(F)(F)F)CC2)[nH]1)(c1ccc(-n2cccn2)cc1)C(F)(F)F`, the IC50 was 14 ± 5.5 µM (BCHE; inhibitor; with Triton).
`CC(C)(c1ccccc1)c1cc(-n2nc3ccccc3n2)c(O)c(C(C)(C)c2ccccc2)c1`: “amount in receptor fluid” “not detected” (EpiSkin reconstructed epidermis; concentration not given, 36 h).
For `CN1CCN(c2ccc(Nc3nccc(-c4ccc(Cl)cc4)n3)cc2C(F)(F)F)CC1`, the toxicity was 100% (Danio rerio embryos; 5 µM, 5 d).
For `Cc1ccc(S(=O)(=O)Nc2c(N[C@H]3CC[C@H](NC(=O)Nc4ccc(F)c(Cl)c4)CC3)c(=O)c2=O)cc1`, “volume of distribution” read 240 L (rat, plasma; oral, 20 mg/kg).
For `Clc1ccc(Cl)c(-c2cc(Cl)ccc2Cl)c1`, “relative liver weight” read 0.0392 g/g body weight (Sprague Dawley rat; intraperitoneal, 10 mg/kg).

Excerpt of the above:
`CC/C(=C(\c1ccccc1)c1ccc(OCCN(C)C)cc1)c1ccccc1` gave a Tmax of 6 h (CD-1 mouse, male, lung; intraperitoneal, 30 mg/kg).
`O[C@H]1CCCN[C@@H]1CCCn1cnc2c(Cl)c(Cl)ccc21` gave a CL/F of 2490 mL/min (healthy human, plasma; oral, 150 mg, steady state, together with: nintedanib 150 mg).
